Results collected from several papers.
A part holds a random share of what one study measured. Changes are numbered by the printed parent chain.

Set 1 — technique: protein binding microarray; molecule type: double-stranded DNA, one strand shown; matrix: in vitro; tested at: not given; relative to: not given; reading: higher = stronger binding; quantity: E-score
Target: Histone acetyltransferase KAT6A, winged helix 1, GST fusion (KAT6A, Homo sapiens, UniProt Q92794, residues 1-85)
Notes: 8-mer, flanks averaged, mean of 2 arrays, mostly near background
Construct (chain): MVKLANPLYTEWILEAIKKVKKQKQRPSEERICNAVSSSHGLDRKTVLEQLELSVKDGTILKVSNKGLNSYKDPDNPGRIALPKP
ACACTAGT: -0.0141
CTTAAAAC: -0.146
CTGGTGCC: -0.046
ACTGGTAA: -0.0848
AGGGTTAC: 0.0742
GATGTCAA: -0.0035
AGTGCATC: -0.0581
CGCTGGTA: 0.0534

Set 2 — target: CCND3, cyclin fold, Cln2 fusion (human); technique: yeast growth competition, sequencing; matrix: yeast; notes: weak parent motif; relative to: not given; reading: higher = stronger binding; quantity: normalised enrichment score
Starting sequence: CDKN1A docking peptide (human); SKACRRLFGPVDS; partner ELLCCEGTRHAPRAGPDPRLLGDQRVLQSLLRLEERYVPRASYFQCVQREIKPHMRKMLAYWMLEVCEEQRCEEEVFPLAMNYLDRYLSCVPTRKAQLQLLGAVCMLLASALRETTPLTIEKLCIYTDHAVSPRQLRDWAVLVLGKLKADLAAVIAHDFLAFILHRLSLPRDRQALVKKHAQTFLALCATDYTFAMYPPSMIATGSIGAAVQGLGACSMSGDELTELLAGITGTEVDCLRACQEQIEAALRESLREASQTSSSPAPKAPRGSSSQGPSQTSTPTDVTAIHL
C4L: 0.155
A3W: 0.109
F8K: 0.137
A3C: 0.484
P10M: 0.18
D12N: 0.237
V11N: 0.161

Set 3 — technique: aptamer microarray, sandwich; molecule type: DNA with 2'F-ANA; matrix: in vitro; tested at: 200 nM; together with: Cy3 exosite-II aptamer, 400 nM; reading: higher = stronger binding; quantity: mean fluorescence intensity; strand: GGTTGGTGTGGTTGG
Target: Prothrombin, mature alpha-thrombin (F2, Homo sapiens, UniProt P00734)
Notes: whole 15-mer aptamer, many near background
2'F-ANA at 1 2 5 6 8 10 11 14 15: 54.4 a.u.
2'F-ANA at 2 5 8 12 13 14 15: 65.8 a.u.
2'F-ANA at 3 6 8 11: 1070 a.u.
2'F-ANA at 6 8 9 11: 421 a.u.
2'F-ANA at 2 3 4 6 9 10 11 12 14: 142 a.u.
2'F-ANA at 1 4 5 6 7 8 10 11 12 13: 50 a.u.
2'F-ANA at 1 4 6 7 9 10 11 12 15: 55 a.u.
2'F-ANA at 1 3 4 5 6 7 8 10 11 12 14: 49.3 a.u.
2'F-ANA at 2 3 4 5 7 12 13 15: 107 a.u.

Further values, each from its own experiment
PhoQ, residues 284 288 289 292 302 303 GLASVI
fold induction (PhoP, residues 12 14 15 18 19 AGCRL (Escherichia coli, UniProt P23836); Sort-seq, item: YFP reporter; E. coli; PhoQ-PhoP variant library, together with: 10 µM Mg2+; relative to: high Mg2+ state, higher = stronger signaling): 3.17

For quick reference, copied from above (set 3):
2'F-ANA at 1 4 5 6 7 8 10 11 12 13: 50 a.u.
2'F-ANA at 1 4 6 7 9 10 11 12 15: 55 a.u.
